Published values from different studies.
Parts stem from different laboratories: compare values within a part only. Numbers after ± are the reported error.

Study 1
Organism: SARS-CoV-2 Wuhan spike VSV pseudovirus
Effect on: pseudovirus entry
Concentration: concentration not given
Structure (SMILES)	inhibition [%]
CC(C)c1ccc(NC(=O)c2cn3c(n2)CCCC3)cc1	40
CCO[C@H]1COC[C@@H]1NC(=O)c1ccc2c(c1)nnn2C	42
Cc1cccc(CNC(=O)C2CCN(S(=O)(=O)c3cc(-c4noc(C5CC5)n4)ccc3C)CC2)c1	48
Cn1cc(C(=O)O/N=C(\N)c2ccc(C(C)(C)C)cc2)c(C(F)(F)F)n1	49
CCOc1ccc(CCNc2ncnc3c2nc2n3CCCCC2)cc1OCC	43
CCOC(=O)c1nc(N2CCC(c3ccccc3)C2)c2ccccc2n1 (centres unmarked)	47
Cn1c(CN2CCN(C(=O)c3ccc4c(c3)OCO4)CC2)nc2cc(C(=O)N3CCCC3)ccc21	37

Single results of other studies
rep nsp14: Replicase polyprotein 1ab, nsp14 (rep, Severe acute respiratory syndrome coronavirus 2, UniProt P0DTD1)
rep papain-like protease: Replicase polyprotein 1ab, papain-like protease (rep, Severe acute respiratory syndrome coronavirus 2, UniProt P0DTD1)
rep nsp12 RdRp: Replicase polyprotein 1ab, nsp12 RdRp (rep, Severe acute respiratory syndrome coronavirus 2, UniProt P0DTD1)
Compound	target	assay	setting	scale	measurement	result
Cc1ccc(NS(=O)(=O)c2cccc(C(=O)NC3CCN(c4ncnc5[nH]cnc45)CC3)c2)cc1	rep nsp14		0.01221 µM		inhibition	-1.64%
O=C(O)c1cc(N(Cc2ccccc2O)Cc2ccccc2O)ccc1O	rep papain-like protease		concentration not given, C111S mutant	relative to: positive control	activity	22.9%
O=C(NC1CCN(c2ncnc3[nH]cnc23)CC1)c1cccc(S(=O)(=O)N2CCC2)c1	rep nsp14	NSP14 enzyme activity, inhibitor	200 µM		inhibition	77.2%
Cc1ccc(Oc2nc3cc(-c4ccc(-c5ccccc5)cc4)c(Cl)cc3[nH]2)cc1C(=O)O	rep nsp12 RdRp	binding, biolayer interferometry	concentration not given		BLI response	7.61 nm
N=C(N)c1ccc2cc(OC(=O)c3ccc(N=C(N)N)cc3)ccc2c1	rep papain-like protease		concentration not given, C111S mutant	relative to: positive control	activity	19.8%
CC(C)CC(=O)Nc1cncc(-c2ccc3[nH]nc(-c4nc5c(-c6cccc(F)c6)cncc5[nH]4)c3c2)c1	rep nsp12 RdRp	binding, biolayer interferometry	concentration not given		BLI response	0.01 nm
CCC(CC)[C@H](NC(C)=O)[C@@H]1[C@H](O)[C@@H](C(=O)O)C[C@H]1N=C(N)N	neuraminidase (Influenza B virus, UniProt A0A1S5RAG6, H273Y)				IC50	232 ± 22.5 nM

A few entries again (single results of other studies):
Compound	target	assay	setting	scale	measurement	result
CC(C)CC(=O)Nc1cncc(-c2ccc3[nH]nc(-c4nc5c(-c6cccc(F)c6)cncc5[nH]4)c3c2)c1	rep nsp12 RdRp	binding, biolayer interferometry	concentration not given		BLI response	0.01 nm
